Experimental data collected from several papers.
Parts stem from different laboratories: compare values within a part only.

Set 1
Target: TAR DNA-binding protein 43, full length, His tag (TARDBP, Homo sapiens, UniProt Q13148, residues 1-414)
Method: RNA Bind-n-Seq
Form: RNA
Matrix: in vitro
Concentration: 20 nM
Setting: 6-mer, flanks averaged, single round
Together with: 150 mM KCl
Baseline: input library
Reading: higher = stronger binding
Sequence	6-mer enrichment (R)
CAUUAU	0.574
ACACUG	0.695
UGACUA	0.625
UGUUCC	0.617
CACACG	0.747
CCGCGU	0.796
GCUAUU	0.639
CUUCAA	0.556

Set 2
Target: RNA binding protein fox-1 homolog 2, RRM domain, GST-SBP tag (RBFOX2, Homo sapiens, UniProt O43251-10, residues 100-194)
Method: RNA Bind-n-Seq
Form: RNA
Matrix: in vitro
Concentration: 365 nM
Setting: natural RNA segment, single round, ends assumed
Baseline: no-protein control
Reading: higher = stronger binding
Constant ends, left off below: GGGAGUUCUACAGUCCGACGAUC … UGGAAUUCUCGGGUGCCAA
Target sequence (chain): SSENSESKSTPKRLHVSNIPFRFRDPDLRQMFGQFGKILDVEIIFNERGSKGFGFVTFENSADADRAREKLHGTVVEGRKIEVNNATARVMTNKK
Sequence	RBNS enrichment (R)
AAGAUUUCCCAGUUUGGUUUCUCUACAUGUCCUGCAGCUGCCCCACUUCUCCUUUACGCUGUGUAGAGAAUGCUCUGCAGUUUAGGCAAUAAAAAUAAAUUGUCUCACUA	0.383
GUCUCCAAGUCCAAAUCUGAAGGCAGCCUCACCUGCUCUCUGCCCCGGGACGCCUAGGAGCCUGGGGGACACUGGAAGAGGGGCCUGUCCAUCCUCACCAUCGCCUUCCC	0.593
UAUGUUUUCCUGUACUAGAUGGCUAGGAUUCCAGAGAAUUACUAUAAAGUAUUUUCAACACACCUGACAUUGCAUUUCUCAUUUUUUAAGAUUUUUUUUUUAAUUUUUAA	0.7
AAACAAACCCCUUUUUGGUACCUGCACUGCAUCCCUCGGGUGGGGCAGUGCCUACUUUGGAAGAUGCUGCAGCCUGCGAGGGGAUCUGCUGGGGCUUCCCCUUCGCCACA	0.574
GCCCACAGUGUCCUGUUGGCCAGCGGGGUUCACGGCUAGUGUCUGGAAGCCUGCUGGCCUCGGGUAUGGGCUUCUCUGCCAGUCUCUGGACUGGCCCUUCAAGGAGGUGG	0.181
AUGGAACAUUGUUUUGAGAUCAAACUCCCCACCCUCACAAAAAUGGCCACGUUGCAAUAAAAAUUGUGGCAUAUUACAGAACGUUGCCUUGUUUUCCUUGGAAAUUUUGC	0.74
AGGAGAGGUUCUGUAGAAUCCAAGCCCACAUUUCCAAAGUCACCCCCAACGCGUCCUCUCACACCGUCCACUGUGCGUUUGUAUGUGUCUGGGAUCCAGGGCAAUGUGAA	0.379
CACGAUAUCAGGAGUGAAGCAGACGCUGGCCUUUCCAUGAAUAGCCACCACAUGGCCCAGCAUCUCUGCCAAACACAGUUGCUUCUAGUCUGGCCAGUGCCAAGAGACAA	0.289

Set 3
Target: Prothrombin, mature alpha-thrombin (F2, Homo sapiens, UniProt P00734)
Method: aptamer microarray, sandwich
Form: DNA with 2'F-ANA
Matrix: in vitro
Concentration: 200 nM
Setting: whole 15-mer aptamer, many near background
Together with: Cy3 exosite-II aptamer, 400 nM
Reading: higher = stronger binding
Sequence: GGTTGGTGTGGTTGG
Modification	mean fluorescence intensity [a.u.]
2'F-ANA at 1 3 5 6 7 9 10 11 13 15	52.1
2'F-ANA at 3 5 6 8 11 13 15	86.1
2'F-ANA at 2 3 8 10 13 14	307
2'F-ANA at 2 4 6 8 9 12 13 14 15	87.6
2'F-ANA at 1 3 4 5 6 8 9 10 12 14 15	52.9
2'F-ANA at 3 4 5 6 7 8 12	292
2'F-ANA at 1 2 4 9 10 14	48.4
2'F-ANA at 5 7 8 10 11 12 15	52.3

Further values, each from its own experiment
Compound	target	effect on	mode	concentration	baseline	endpoint	value
CC[n+]1c(/C=C/N(C)c2ccccc2)n(-c2ccccc2)c2ccc(-c3nc4ccccc4s3)cc21	Mitogen-activated protein kinase kinase kinase 20 (MAP3K20, Homo sapiens, UniProt Q9NYL2)	enzyme activity	inhibitor	0.5 µM	control	remaining activity	93.8%

Excerpt of the above (set 3):
Modification	mean fluorescence intensity [a.u.]
2'F-ANA at 2 4 6 8 9 12 13 14 15	87.6
2'F-ANA at 1 3 4 5 6 8 9 10 12 14 15	52.9
2'F-ANA at 3 4 5 6 7 8 12	292
2'F-ANA at 1 2 4 9 10 14	48.4
